Measured values pooled from the literature.
Parts stem from different laboratories: compare values within a part only. Changes are numbered by the printed parent chain.

Series 1
Target: CCND2, cyclin fold, Cln2 fusion (human)
Method: yeast growth competition, sequencing
Medium: yeast
Setting: weak parent motif
Relative to: not given
Direction: higher = stronger binding
Measurement: normalised enrichment score
Starting sequence: PKMYT1 docking peptide (human); SFEPRNLLSLFED; partner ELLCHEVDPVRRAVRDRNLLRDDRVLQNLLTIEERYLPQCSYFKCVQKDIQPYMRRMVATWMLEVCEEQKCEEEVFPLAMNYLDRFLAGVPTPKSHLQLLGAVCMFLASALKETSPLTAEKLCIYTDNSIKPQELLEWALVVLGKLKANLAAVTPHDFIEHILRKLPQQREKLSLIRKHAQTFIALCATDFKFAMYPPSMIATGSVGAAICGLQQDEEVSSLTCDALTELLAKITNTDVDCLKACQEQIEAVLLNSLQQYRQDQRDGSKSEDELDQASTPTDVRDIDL
R5F: -0.0651
E3T: -0.0347
R5G: 0.203
L7S: 0.148
N6Y: 0.135
E3L: 0.393

Series 2
Target: Interferon regulatory factor 5, full length, phosphomimetic (IRF5, Homo sapiens, UniProt Q13568-2, residues 1-514, K96S/S451D/S453D/S456D/S462D)
Method: protein-binding microarray
Molecule type: double-stranded DNA, one strand shown
Medium: in vitro
Concentration: 250 nM
Setting: 60-bp whole probe
Added: salmon DNA 0.4 mg/ml
Relative to: random background probes
Direction: higher = stronger binding
Measurement: log fluorescence
Constant ends, left off below: GCCTAGCAC … GTCTTGATTCGCTTGACGCTGCTG
TTTACTCTCTACATGGGTATGTGCTAG: 0.491 z-score
TTAGATCTCACTCTCGATTAGTGCTAG: 1.07 z-score
GACGGTATCGACTTTCGTGACGTGCTA: 3.89 z-score
TTAGGTTTCGACTTTCGGATAGTGCTA: 8.92 z-score
TAAGATCTCAGTTTCGATTAGTGCTAG: 8.81 z-score
TCACCTTTACATTCCCCACTGTGCTAG: 0.666 z-score
AGAGCTAAGTGAGTGTCATCGTGCTAG: -0.541 z-score
AGCAGGGGCGCAGGTAGGTGGTGCTAG: -0.685 z-score
TTCGGACTGGGTATCGGTTAGTGCTAG: 4.62 z-score
TAGACTCTGTGCTTTCCTCGTGTGCTA: 0.0353 z-score
CAGGAATGGCACCAGCAGGGGTGCTAG: -0.608 z-score

Series 3
Target: Histone acetyltransferase KAT6A, both winged helices, GST fusion (KAT6A, Homo sapiens, UniProt Q92794, residues 1-181)
Method: protein binding microarray
Molecule type: double-stranded DNA, one strand shown
Medium: in vitro
Concentration: not given
Setting: 8-mer, flanks averaged, mean of 2 arrays, mostly near background
Relative to: not given
Direction: higher = stronger binding
Measurement: E-score
Residues (chain): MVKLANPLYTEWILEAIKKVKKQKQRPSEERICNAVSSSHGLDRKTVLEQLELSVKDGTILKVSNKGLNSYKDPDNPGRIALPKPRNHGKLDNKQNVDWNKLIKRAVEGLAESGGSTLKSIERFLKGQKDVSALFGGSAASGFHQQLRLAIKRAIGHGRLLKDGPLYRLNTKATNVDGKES
AGCTAAGA: -0.127
GGAACCAC: 0.063
GCAAGGGC: -0.0461
AGCTATTG: -0.156
GTTACTGA: 0.109
GGGAGGTA: -0.0109
ATTCGCTG: -0.0289
ACAGAAAC: -0.0996
ATCAATGC: 0.0541
GCGGGGAA: 0.166
ATAAGATA: -0.129
ATTCCGGA: 0.173
CGATATCG: 0.177

Further values, each from its own experiment
PhoQ, residues 284 288 289 292 302 303 NLGVHL
fold induction (PhoP, residues 12 14 15 18 19 LHATL (Escherichia coli, UniProt P23836); Sort-seq, refers to: YFP reporter; E. coli; PhoQ-PhoP variant library, added: 10 µM Mg2+; relative to: high Mg2+ state, higher = stronger signaling): 0.0689

A few entries again (series 3):
ATCAATGC: 0.0541
GCGGGGAA: 0.166
ATAAGATA: -0.129
